Earlier results that unrelated publications cite.
Each line is one published result; not all experiments were run side by side. ± marks the error that the study gave. In brackets after ≈: the same amount, converted by molar mass.
UniProt P11229, sequence (whole entry, looked up): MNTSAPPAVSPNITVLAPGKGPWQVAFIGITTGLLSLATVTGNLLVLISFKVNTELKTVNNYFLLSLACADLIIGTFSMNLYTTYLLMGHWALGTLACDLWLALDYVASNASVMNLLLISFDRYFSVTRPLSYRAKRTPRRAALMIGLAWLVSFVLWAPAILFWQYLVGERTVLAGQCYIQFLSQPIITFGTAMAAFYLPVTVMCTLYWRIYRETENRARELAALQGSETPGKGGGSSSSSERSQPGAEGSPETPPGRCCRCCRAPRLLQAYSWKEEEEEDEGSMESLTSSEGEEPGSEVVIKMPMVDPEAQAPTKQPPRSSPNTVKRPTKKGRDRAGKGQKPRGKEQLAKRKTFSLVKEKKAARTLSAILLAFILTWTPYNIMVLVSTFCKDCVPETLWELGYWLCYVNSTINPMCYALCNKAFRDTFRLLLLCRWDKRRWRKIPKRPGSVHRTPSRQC
UniProt P42336, sequence (whole entry, unmodified, looked up): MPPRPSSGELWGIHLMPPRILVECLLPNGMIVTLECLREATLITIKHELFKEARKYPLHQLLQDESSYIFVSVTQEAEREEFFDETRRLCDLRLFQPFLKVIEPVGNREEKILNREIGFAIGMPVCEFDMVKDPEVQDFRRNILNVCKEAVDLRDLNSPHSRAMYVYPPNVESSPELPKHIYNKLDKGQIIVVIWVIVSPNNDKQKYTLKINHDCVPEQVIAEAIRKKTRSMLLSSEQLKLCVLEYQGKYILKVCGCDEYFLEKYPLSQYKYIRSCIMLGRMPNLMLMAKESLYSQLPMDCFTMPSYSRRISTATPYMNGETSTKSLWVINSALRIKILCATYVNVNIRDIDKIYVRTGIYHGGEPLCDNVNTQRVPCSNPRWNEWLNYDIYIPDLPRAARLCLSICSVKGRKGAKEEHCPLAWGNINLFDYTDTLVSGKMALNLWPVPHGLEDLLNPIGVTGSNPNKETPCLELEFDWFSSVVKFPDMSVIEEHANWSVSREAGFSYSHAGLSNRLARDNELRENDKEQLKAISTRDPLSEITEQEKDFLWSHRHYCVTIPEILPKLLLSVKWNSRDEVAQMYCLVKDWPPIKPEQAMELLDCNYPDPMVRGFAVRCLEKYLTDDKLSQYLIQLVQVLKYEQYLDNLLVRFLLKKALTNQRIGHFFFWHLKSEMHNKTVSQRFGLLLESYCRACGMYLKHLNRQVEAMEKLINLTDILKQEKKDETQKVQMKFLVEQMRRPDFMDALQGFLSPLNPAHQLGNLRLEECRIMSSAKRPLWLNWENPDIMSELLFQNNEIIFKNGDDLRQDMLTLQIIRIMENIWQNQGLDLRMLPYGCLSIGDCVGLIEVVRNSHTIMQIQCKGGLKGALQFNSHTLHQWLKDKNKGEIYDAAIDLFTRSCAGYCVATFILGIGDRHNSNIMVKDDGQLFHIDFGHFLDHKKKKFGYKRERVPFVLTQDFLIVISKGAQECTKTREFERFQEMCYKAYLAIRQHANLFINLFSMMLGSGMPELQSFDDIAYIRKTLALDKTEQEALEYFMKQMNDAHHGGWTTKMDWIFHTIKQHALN
UniProt P15207, sequence (whole entry, looked up): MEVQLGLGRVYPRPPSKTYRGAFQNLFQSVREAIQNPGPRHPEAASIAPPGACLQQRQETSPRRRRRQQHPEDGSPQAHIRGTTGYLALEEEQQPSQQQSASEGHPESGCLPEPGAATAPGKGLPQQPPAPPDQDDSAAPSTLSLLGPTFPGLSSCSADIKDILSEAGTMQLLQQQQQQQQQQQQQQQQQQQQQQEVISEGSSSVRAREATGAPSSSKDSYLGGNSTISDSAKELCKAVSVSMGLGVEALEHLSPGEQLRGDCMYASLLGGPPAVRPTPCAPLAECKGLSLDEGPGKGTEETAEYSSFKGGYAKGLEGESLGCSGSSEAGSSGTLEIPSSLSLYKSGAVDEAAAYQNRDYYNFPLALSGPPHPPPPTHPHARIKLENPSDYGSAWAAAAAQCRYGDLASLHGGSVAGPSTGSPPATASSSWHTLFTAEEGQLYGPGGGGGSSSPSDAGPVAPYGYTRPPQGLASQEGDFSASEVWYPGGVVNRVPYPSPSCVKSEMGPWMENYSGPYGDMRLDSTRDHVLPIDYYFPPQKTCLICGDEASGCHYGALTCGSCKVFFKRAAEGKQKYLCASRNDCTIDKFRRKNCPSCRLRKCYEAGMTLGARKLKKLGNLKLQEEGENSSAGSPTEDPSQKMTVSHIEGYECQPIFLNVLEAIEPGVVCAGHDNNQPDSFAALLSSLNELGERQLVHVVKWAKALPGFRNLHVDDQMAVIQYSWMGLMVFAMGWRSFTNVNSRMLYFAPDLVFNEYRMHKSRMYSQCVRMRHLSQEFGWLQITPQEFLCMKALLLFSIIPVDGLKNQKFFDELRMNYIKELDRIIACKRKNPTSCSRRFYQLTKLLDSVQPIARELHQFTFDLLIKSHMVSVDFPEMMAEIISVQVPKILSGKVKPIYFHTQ

Structure (SMILES)	target or system	test	system	conditions	quantity	value
C[N+]1(C)CCC(OC(=O)C(c2ccccc2)c2ccccc2)CC1	CHRM1 (Homo sapiens, UniProt P11229)	inhibitor		historical measurement	IC50	0.0045 µM
COc1ccc(-c2sc(NC(=O)C(C)(C)C)nc2C)cc1S(=O)(=O)Nc1ccc(O)cc1	PI4K-IIIbeta	inhibitor			IC50	0.0034 µM
C[C@@H](O)[C@H]1C(=O)N2C(C(=O)O)=C(S[C@@H]3CN[C@H](C(=O)N(C)C)C3)[C@H](C)[C@H]12	Escherichia coli	bacterial growth	colistin-resistant		MIC	< 0.12 µg/mL
Nc1ncc(-c2nc(N3CCOCC3)nc(N3CCOCC3)n2)c(C(F)F)n1	PIK3CA (Homo sapiens, UniProt P42336, C420R)	KinomeScan competition binding		10 µM	remaining binding	0%
C[C@]12C=CC3=C4CCC(=O)C=C4CC[C@H]3[C@@H]1CC[C@@H]2O	Androgen receptor (Ar, Rattus norvegicus, UniProt P15207)			concentration not given	activity class	active
FC(F)(F)Oc1ccc(Oc2ccnc(N3CCC(NC(=S)Nc4cccnc4)CC3)c2Cl)c(Cl)c1	ABHD12	inhibitor			IC50	0.011 µM
CNC(=NC#N)NCCc1c[nH]cn1		antinociception, hot plate test	rat	intracerebroventricular, 5 min	ED50	137 nmol
O=c1[nH]cc(F)c(=O)[nH]1			metastatic pancreatic cancer patients	dose not given	6-month overall survival rate	31%
CCN(CC)C(=O)[C@@H]1C=C2c3cccc4[nH]cc(c34)C[C@H]2N(C)C1	HEK293, recombinant	binding, radioligand binding			Kd	0.0015 µM
CC(O)CN1CCN(CC(=O)[O-])CCN(CC(=O)[O-])CCN(CC(=O)[O-])CC1.[Gd+3] (centres unmarked)			human plasma	310 K, 0.47 T	relaxivity r1	4.9 mM⁻¹ s⁻¹
O=C(O)c1cc(-c2ccc(/C=C3\SC(=S)N(Cc4ccccc4)C3=O)o2)ccc1Cl	eIF4E-eIF4G interaction	inhibitor			IC50	13.5 µM
C[C@H]1[C@H](NC(=O)/C(=N\OC(C)(C)C(=O)O)c2csc(N)n2)C(=O)N1S(=O)(=O)O	Escherichia coli	bacterial growth	colistin-resistant		MIC	8 µg/mL (≈ 18.4 µM)
COC(=O)[C@@H]1C[C@H](OC(C)=O)C(=O)[C@H]2[C@@]1(C)CC[C@H]1C(=O)O[C@H](c3ccoc3)C[C@]21C	kappa opioid receptor S211A				Ki	0.038 ± 0.005 µM
Cc1n[nH]cc1NC(=O)Cc1cccc(Cl)c1	main protease (Mpro)			20 µM	inhibition	3.64%
O=[N+]([O-])c1ccc(O)c([N+](=O)[O-])c1			human patients	300 mg/day, food intake unaltered	weight loss	2 to 3 pounds/week
CCCCCOc1ccc(-c2ccc(-c3ccc(C(=O)N[C@H]4C[C@@H](O)[C@@H](O)NC(=O)[C@@H]5[C@@H](O)[C@@H](C)CN5C(=O)[C@H]([C@@H](C)O)NC(=O)[C@H]([C@H](O)[C@@H](O)c5ccc(O)cc5)NC(=O)[C@@H]5C[C@@H](O)CN5C(=O)[C@H]([C@@H](C)O)NC4=O)cc3)cc2)cc1			haematological patients	dose not given	mean clearance	1.49 L/h
Cc1ccncc1NC(=O)Cc1cccc(F)c1	main protease (Mpro)			20 µM	inhibition	39.6%
CCN(CC)N=O		fingerprint mutation, measured: T>C substitution	rat, liver	concentration not given	mutation frequency	increased
COc1ccccc1OCCNC(=O)c1cc(=O)[nH]c2cccc(C)c12	main protease (Mpro)			20 µM	inhibition	91.8%
O=C1N[C@@H]2CCCC[C@H]2N[C@H]1c1c[nH]c2ncccc12	COLO 205	cytotoxicity			IC50	> 100 µM
CN(C)c1ccc(N(Cc2ccsc2)C(=O)Cn2nnc3ccccc32)cc1	main protease (Mpro)			50 µM	inhibition	90.3%
c1c[nH]cn1	horse cytochrome c			pH 7	apparent association rate constant	~15 M⁻¹ s⁻¹
Cc1ccnc(-c2cc(C)ccn2)c1.[Ru+2].c1ccc(-c2ccnc3c2ccc2c(-c4ccccc4)ccnc23)cc1.c1ccc(-c2ccnc3c2ccc2c(-c4ccccc4)ccnc23)cc1	CT26			light irradiation 480 nm	EC50	0.19 µM

Excerpt of the above:
Structure (SMILES)	target or system	test	system	conditions	quantity	value
COc1ccccc1OCCNC(=O)c1cc(=O)[nH]c2cccc(C)c12	main protease (Mpro)			20 µM	inhibition	91.8%
COC(=O)[C@@H]1C[C@H](OC(C)=O)C(=O)[C@H]2[C@@]1(C)CC[C@H]1C(=O)O[C@H](c3ccoc3)C[C@]21C	kappa opioid receptor S211A				Ki	0.038 ± 0.005 µM
